Assay results pooled from the literature.
Each line is one published result; not all experiments were run side by side. Values joined by “and” are separate records of one study, mostly repeats; a detail may differ. ± marks the error that the study gave.
Beta-lactamase CTX-M-27: Beta-lactamase CTX-M-27 (Escherichia coli, UniProt Q840M4)
Sequence of UniProt Q9UK53 (whole entry, looked up): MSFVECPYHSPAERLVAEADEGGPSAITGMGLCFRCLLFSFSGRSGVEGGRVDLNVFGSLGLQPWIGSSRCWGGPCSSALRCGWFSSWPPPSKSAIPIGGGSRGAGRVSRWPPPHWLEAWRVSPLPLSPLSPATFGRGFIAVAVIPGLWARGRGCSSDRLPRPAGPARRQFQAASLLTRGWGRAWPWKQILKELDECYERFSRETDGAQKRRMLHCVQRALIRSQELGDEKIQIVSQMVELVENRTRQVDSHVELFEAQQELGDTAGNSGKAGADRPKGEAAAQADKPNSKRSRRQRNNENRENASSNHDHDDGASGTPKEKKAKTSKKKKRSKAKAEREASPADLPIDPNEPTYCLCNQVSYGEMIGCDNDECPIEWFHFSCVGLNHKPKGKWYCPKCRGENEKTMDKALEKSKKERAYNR
Sequence of UniProt Q5M7A7 (whole entry, looked up): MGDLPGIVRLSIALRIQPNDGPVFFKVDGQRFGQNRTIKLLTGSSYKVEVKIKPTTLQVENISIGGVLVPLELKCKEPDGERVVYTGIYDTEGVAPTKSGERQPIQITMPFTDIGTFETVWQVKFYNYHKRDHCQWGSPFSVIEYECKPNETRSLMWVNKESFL
Sequence of UniProt Q9WYW0 (whole entry, looked up): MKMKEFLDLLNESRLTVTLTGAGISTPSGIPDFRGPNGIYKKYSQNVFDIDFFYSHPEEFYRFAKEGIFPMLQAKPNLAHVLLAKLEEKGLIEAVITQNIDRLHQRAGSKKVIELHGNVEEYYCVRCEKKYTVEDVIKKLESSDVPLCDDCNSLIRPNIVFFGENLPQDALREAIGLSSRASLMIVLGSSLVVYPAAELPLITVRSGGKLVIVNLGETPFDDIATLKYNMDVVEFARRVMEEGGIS
Sequence of UniProt P02751 (whole entry, looked up): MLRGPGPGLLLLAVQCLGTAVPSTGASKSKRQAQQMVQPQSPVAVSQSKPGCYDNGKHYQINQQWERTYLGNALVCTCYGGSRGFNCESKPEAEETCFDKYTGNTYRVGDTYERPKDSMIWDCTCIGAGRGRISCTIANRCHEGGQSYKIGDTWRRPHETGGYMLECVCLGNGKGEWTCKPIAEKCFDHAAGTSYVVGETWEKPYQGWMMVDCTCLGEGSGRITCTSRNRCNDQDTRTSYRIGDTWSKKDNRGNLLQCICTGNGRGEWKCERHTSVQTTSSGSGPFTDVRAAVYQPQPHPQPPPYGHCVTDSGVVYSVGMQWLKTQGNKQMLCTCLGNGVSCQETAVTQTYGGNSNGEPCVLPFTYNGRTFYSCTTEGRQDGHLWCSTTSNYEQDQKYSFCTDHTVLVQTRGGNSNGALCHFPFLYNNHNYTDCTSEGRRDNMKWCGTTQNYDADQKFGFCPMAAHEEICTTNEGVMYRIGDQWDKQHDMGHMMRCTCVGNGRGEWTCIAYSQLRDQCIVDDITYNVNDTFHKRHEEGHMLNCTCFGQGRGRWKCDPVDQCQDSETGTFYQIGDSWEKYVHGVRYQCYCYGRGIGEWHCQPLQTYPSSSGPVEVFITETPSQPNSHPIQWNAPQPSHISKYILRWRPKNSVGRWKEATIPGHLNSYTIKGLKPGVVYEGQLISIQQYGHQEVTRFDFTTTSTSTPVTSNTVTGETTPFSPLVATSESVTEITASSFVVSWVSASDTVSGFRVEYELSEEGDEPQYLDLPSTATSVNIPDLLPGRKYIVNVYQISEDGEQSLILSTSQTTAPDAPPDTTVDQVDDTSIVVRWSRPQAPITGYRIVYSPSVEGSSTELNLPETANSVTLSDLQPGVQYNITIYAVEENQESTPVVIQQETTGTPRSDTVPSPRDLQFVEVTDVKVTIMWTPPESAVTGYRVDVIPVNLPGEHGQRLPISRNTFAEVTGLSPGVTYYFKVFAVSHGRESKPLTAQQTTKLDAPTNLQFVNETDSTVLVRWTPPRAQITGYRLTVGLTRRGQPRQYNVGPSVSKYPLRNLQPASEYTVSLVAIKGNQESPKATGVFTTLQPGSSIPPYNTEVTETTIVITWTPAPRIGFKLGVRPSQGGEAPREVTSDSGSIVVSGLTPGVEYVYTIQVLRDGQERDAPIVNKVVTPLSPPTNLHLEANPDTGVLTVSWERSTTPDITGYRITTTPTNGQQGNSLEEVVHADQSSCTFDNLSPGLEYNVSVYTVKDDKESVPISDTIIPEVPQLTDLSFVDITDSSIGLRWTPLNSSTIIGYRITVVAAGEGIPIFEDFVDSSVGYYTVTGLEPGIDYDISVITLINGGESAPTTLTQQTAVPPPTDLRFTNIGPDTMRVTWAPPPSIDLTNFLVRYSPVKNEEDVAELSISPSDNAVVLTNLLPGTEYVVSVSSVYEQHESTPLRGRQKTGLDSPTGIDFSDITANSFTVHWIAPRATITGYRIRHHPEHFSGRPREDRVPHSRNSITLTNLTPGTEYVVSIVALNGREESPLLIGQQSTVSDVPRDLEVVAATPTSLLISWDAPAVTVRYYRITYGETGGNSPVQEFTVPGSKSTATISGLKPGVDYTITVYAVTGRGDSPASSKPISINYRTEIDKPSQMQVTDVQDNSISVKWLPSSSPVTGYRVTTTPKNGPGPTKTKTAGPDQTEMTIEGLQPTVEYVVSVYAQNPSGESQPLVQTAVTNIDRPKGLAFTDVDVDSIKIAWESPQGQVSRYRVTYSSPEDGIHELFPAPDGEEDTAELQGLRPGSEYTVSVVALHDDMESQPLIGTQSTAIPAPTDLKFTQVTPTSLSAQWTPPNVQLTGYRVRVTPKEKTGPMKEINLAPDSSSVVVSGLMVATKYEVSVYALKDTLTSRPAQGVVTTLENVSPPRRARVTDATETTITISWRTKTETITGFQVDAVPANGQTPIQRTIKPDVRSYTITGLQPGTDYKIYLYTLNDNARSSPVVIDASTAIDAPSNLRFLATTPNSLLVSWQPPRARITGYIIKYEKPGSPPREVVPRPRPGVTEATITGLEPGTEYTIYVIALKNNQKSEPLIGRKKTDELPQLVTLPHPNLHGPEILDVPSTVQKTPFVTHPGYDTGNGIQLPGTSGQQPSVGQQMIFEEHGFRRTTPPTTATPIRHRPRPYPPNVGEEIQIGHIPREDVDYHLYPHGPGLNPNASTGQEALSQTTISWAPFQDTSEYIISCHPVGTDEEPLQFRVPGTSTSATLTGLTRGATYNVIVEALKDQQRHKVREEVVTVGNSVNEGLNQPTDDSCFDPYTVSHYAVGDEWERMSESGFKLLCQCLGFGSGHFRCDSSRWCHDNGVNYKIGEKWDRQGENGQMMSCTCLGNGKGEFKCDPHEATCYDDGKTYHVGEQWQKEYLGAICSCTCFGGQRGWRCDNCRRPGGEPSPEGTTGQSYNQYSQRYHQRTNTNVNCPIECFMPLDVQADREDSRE
Sequence of UniProt Q13526 (whole entry, looked up): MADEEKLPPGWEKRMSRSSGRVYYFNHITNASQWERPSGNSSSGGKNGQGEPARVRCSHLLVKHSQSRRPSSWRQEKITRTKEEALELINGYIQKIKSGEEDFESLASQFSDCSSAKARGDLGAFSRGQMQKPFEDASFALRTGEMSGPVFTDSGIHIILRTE
Sequence of UniProt P09619 (whole entry, unmodified, looked up): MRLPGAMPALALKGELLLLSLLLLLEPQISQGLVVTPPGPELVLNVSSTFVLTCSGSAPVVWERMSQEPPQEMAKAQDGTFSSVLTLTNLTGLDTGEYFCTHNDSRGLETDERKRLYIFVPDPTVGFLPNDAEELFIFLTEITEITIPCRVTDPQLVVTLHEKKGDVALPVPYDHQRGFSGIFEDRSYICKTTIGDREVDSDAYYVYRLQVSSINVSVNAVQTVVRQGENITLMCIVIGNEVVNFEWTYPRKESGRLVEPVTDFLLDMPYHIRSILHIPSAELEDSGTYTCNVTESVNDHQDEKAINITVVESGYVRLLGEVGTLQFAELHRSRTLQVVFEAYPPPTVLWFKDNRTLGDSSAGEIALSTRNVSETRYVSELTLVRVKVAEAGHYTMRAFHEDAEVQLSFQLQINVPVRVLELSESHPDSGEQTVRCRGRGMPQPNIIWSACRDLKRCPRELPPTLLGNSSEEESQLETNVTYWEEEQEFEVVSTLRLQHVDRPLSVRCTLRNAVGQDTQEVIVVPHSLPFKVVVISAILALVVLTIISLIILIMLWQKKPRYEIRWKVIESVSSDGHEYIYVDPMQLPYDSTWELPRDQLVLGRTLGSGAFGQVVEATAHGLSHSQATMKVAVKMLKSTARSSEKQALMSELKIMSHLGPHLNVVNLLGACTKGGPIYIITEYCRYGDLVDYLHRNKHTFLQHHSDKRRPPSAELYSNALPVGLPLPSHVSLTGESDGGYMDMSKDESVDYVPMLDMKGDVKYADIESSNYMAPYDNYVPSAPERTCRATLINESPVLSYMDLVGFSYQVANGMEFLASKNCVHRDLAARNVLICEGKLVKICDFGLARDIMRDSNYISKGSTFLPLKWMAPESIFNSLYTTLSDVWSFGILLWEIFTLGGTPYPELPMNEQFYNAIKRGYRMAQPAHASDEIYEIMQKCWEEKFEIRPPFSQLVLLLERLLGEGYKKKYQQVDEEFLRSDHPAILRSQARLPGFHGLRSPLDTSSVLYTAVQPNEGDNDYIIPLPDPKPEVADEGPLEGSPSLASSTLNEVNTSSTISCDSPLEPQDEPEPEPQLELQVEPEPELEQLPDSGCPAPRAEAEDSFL
Sequence of UniProt Q8JGN5 (whole entry, looked up): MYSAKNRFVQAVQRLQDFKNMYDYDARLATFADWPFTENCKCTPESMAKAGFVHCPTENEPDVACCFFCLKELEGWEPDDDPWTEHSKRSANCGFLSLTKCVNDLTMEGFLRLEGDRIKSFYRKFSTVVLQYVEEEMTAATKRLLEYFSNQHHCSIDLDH
Sequence of UniProt B9K712 (whole entry, unmodified, looked up): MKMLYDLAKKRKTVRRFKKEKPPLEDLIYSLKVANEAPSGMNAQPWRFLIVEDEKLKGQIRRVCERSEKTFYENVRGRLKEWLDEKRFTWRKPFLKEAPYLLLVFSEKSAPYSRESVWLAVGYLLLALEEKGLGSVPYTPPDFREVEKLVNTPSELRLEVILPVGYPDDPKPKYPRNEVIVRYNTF

SMILES	target	test	test system	conditions	Kd
CC(=O)NCCCC[C@H](NC(=O)[C@H](CCCCN)NC(=O)[C@H](Cc1c[nH]cn1)NC(=O)[C@H](CCCNC(=N)N)NC(=O)[C@H](CO)NC(=O)[C@@H](NC(=O)[C@H](CO)NC(=O)[C@H](CCC(N)=O)NC(=O)CNC(=O)[C@H](CCCCN)NC(=O)[C@@H](N)CCCCN)[C@@H](C)O)C(=O)N[C@@H](CC(C)C)C(=O)N[C@@H](CCCNC(=N)N)C(=O)N[C@@H](Cc1ccccc1)C(=O)N[C@@H](CCCCN)C(=O)N[C@H](C(=O)N[C@@H](CCC(=O)O)C(=O)NCC(=O)O)[C@@H](C)O	NAD-dependent protein deacetylase (cobB, Thermotoga maritima, UniProt Q9WYW0)	acetylated p53 peptide binding, intrinsic tyrosine fluorescence		pH 9.2, target 0.4 µM	28.2 µM
C[C@H](N)C(=O)N[C@@H](CCCNC(=N)N)C(=O)N[C@H](C(=O)N[C@@H](CCCC[N+](C)(C)C)C(=O)N[C@@H](CCC(N)=O)C(=O)N[C@H](C(=O)N[C@@H](C)C(=O)N[C@@H](CCCNC(=N)N)C(=O)N[C@@H](CCCCN)C(=O)N[C@@H](CO)C(=O)N[C@H](C(=O)NCC(=O)NCC(=O)N[C@@H](CCCCN)C(=O)N[C@@H](C)C(=O)N[C@@H](CCCCNC(=O)c1ccc2c(c1)C(=O)OC21c2ccc(O)cc2Oc2cc(O)ccc21)C(N)=O)[C@@H](C)O)[C@@H](C)O)[C@@H](C)O	Inhibitor of growth protein 1, PHD finger (ING1, Homo sapiens, UniProt Q9UK53)	binding, fluorescence polarization		pH 7.5, 25 °C, together with: fluorescein-labelled histone H3K4 peptide	16.2 ± 4.4 µM
N=C(N)Nc1ccc(-c2nc3ccc(-c4ccc5nc(-c6ccc(NC(=N)N)cc6)[nH]c5c4)cc3[nH]2)cc1	AT-rich DNA hairpin	binding, microscale thermophoresis			> 5 µM
CC[C@H](C)[C@H](NC(=O)[C@H](CC(=O)O)NC(=O)[C@@H](NC(=O)[C@@H]1CCCN1C(=O)[C@H](CC(N)=O)NC(=O)[C@H](CCC(N)=O)NC(=O)[C@H](CCC(N)=O)NC(=O)[C@H](CC(N)=O)NC(=O)CNC(=O)[C@H](Cc1ccc(O)cc1)NC(=O)[C@@H](NC(=O)[C@H](CCC(=O)O)NC(=O)[C@@H](NC(=O)[C@@H](NC(=O)[C@H](Cc1ccc(O)cc1)NC(=O)[C@H](CCC(=O)O)NC(=O)[C@@H](NC(=O)[C@H](CCC(=O)O)NC(=O)CNC(=O)[C@H](CO)NC(=O)[C@H](CCC(=O)O)NC(=O)CNC(=O)[C@H](C)NC(=O)[C@H](CC(C)C)NC(=O)[C@@H]1CCCN1C(=O)[C@H](CO)NC(=O)[C@H](CCC(N)=O)NC(=O)[C@H](CC(=O)O)NC(=O)[C@H](CCCCN)NC(=O)[C@@H](NC(=O)CNC(=O)[C@H](CCCCN)NC(=O)[C@H](CO)NC(=O)CN)[C@@H](C)O)[C@@H](C)O)[C@@H](C)CC)[C@@H](C)O)C(C)C)C(C)C)C(=O)N[C@@H](CC(=O)O)C(=O)N[C@@H](CCCCN)C(=O)N[C@@H](CCCCN)C(=O)N[C@@H](CC(C)C)C(=O)N1CCC[C@H]1C(=O)N[C@@H](CC(N)=O)C(=O)N[C@@H](CCC(=O)O)C(=O)N[C@H](C(=O)NCC(=O)N[C@@H](Cc1ccccc1)C(=O)N[C@@H](CO)C(=O)NCC(=O)N[C@@H](CC(N)=O)C(=O)N[C@@H](CCSC)C(=O)N[C@H](C(=O)N[C@@H](CCC(=O)O)C(=O)N[C@H](C(=O)N[C@@H](CCC(=O)O)C(=O)N[C@@H](CC(=O)O)C(=O)N[C@H](C(=O)N[C@@H](CCCCN)C(=O)N[C@@H](C)C(=O)O)[C@@H](C)O)[C@@H](C)O)C(C)C)[C@@H](C)O	Fibronectin (FN1, Homo sapiens, UniProt P02751)	binding, ITC		pH 7.2	0.0052 µM
O=C(Nc1cccc(-c2nn[nH]n2)c1)c1cc(-n2cnnn2)cc(C(F)(F)F)c1	Beta-lactamase CTX-M-27	surface plasmon resonance		25 °C	7.24 ± 0.06 µM
CC(C)P(=[Se])(NP(=[Se])(C(C)C)C(C)C)C(C)C	Alpha-amylase (Bacillus subtilis, UniProt P00691)	fluorescence quenching		304 K	1390 µM
COC(=O)[C@H](Cc1ccccc1)NC(=O)[C@@H]1CCCN1C(=O)[C@H](CCCCN)NC(=O)[C@H](C)NC(C)=O	PIN1 (Homo sapiens, UniProt Q13526)	binding		pH 7.4	22.4 µM
C=CC[C@H]1OC(=O)CCNC(=O)[C@H](C)N(C)C(=O)[C@H]([C@@H](C)CC)N(C)C(=O)[C@H]([C@@H](C)CC)NC(=O)[C@@H]2[C@@H](C)CCN2C1=O	Platelet-derived growth factor receptor beta, extracellular domain (PDGFRB, Homo sapiens, UniProt P09619, F136A/F138A)	binding, surface plasmon resonance		F136A and F138A mutant	99.5 µM
CC[C@H](C)[C@@H]1NC(=O)[C@H]([C@@H](C)O)NC(=O)CNC(=O)[C@H](CCCNC(=N)N)NC(=O)[C@H](CC(C)C)NC(=O)[C@@H]2CSSC[C@H](NC1=O)C(=O)N[C@H](C(=O)N[C@@H](CO)C(=O)NCC(N)=O)CSSC[C@H](NC(=O)[C@H](C)N)C(=O)N[C@@H](C)C(=O)N[C@@H](Cc1c[nH]c3ccccc13)C(=O)N2	Chymotrypsinogen A, activated (alpha-chymotrypsin) (Bos taurus, UniProt P00766)	SPR		pH 7.4, 25 °C	0.00084 µM
C[C@H](N)C(=O)N[C@@H](CCCNC(=N)N)C(=O)N[C@H](C(=O)N[C@@H](CCCCN)C(=O)N[C@@H](CCC(N)=O)C(=O)N[C@H](C(=O)N[C@@H](C)C(=O)N[C@@H](CCCNC(=N)N)C(=O)N[C@@H](CCCCN)C(=O)N[C@@H](CO)C(=O)N[C@H](C(=O)NCC(=O)O)[C@@H](C)O)[C@@H](C)O)[C@@H](C)OP(=O)(O)O	Baculoviral IAP repeat-containing protein 5.1-A (birc5.1-a, Xenopus laevis, UniProt Q8JGN5)	ITC		pH 7.2, 25 °C	6.47 ± 0.47 µM
CCCCCCCCCCCCCCCC(=O)OCC(CSC[C@H](N)C(=O)N[C@@H](CO)C(=O)N[C@@H](CCCCN)C(=O)N[C@@H](CCCCN)C(=O)N[C@@H](CCCCN)C(=O)N[C@@H](CCCCN)C(=O)NCCCCCC(=O)N[C@@H](CCCCN)C(=O)N[C@@H](CC(C)C)C(=O)N[C@H](C(=O)N[C@@H](Cc1ccccc1)C(=O)N[C@@H](Cc1ccccc1)C(=O)N[C@@H](Cc1ccc2ccccc2c1)C(=O)O)C(C)C)OC(=O)CCCCCCCCCCCCCCC (stereo partly drawn)	APP (Homo sapiens, UniProt P05067)	binding, MST			0.041 µM
N[C@@H](Cc1ccc(O)c(I)c1)C(=O)O	Iodotyrosine deiodinase (IYD, Thermotoga neapolitana, UniProt B9K712, F88A/W82A/Y112A)	FMN fluorescence quenching		25 °C, Y112A/W82A/F88A variant	0.9 ± 0.1 µM
CCCCCCCCCCCCCC(=O)NCC(=O)N[C@@H](CS)C(=O)N[C@H](C(=O)N[C@@H](CC(C)C)C(=O)N[C@@H](CO)C(=O)N[C@@H](C)C(=O)N[C@@H](CCC(=O)O)C(=O)N[C@@H](CC(=O)O)C(=O)N[C@@H](CCCCN)C(=O)O)[C@@H](C)O	CB1 cannabinoid receptor-interacting protein 1 (Cnrip1, Rattus norvegicus, UniProt Q5M7A7)	binding, fluorescence polarization		30 min, pH 7.5, room temperature	21.2 ± 2.3 µM
O=C(Nc1cccc(-c2nn[nH]n2)c1)c1cc(-c2ccccn2)cc(C(F)(F)F)c1	Beta-lactamase CTX-M-27	surface plasmon resonance		25 °C	1.79 ± 0.05 µM
CC(C)[C@H](NC(=O)[C@H](CO)NC(=O)[C@@H](NC(=O)[C@@H](N)CC(=O)O)C(C)C)C(=O)N[C@@H](Cc1ccc(O)cc1)C(=O)N[C@@H](CC(=O)O)C(=O)N[C@@H](Cc1ccccc1)C(=O)N[C@@H](CCC(=O)O)C(=O)N[C@@H](CCC(=O)O)C(=O)N[C@@H](CCC(=O)O)C(=O)O	RAD21/STAG2 (Homo sapiens, UniProt O60216+Q8N3U4)	binding, isothermal titration calorimetry		pH 7.7, 25 °C	1.04 ± 0.2 µM
NC(=O)Cc1c[nH]c2ccccc12	txtE (Streptomyces scabiei, UniProt C9ZDC6)	binding		pH 8	1800 µM and ~1800 µM
CC(C)C[C@H](NC(=O)[C@H](CCC(N)=O)NC(=O)[C@@H]1CSSC[C@@H]2NC(=O)[C@H](CC(N)=O)NC(=O)[C@@H](N)CSSC[C@H](NC(=O)[C@H](Cc3ccccc3)NC(=O)[C@H](C)NC(=O)[C@H]([C@@H](C)O)NC(=O)[C@H](CCC(=O)O)NC(=O)[C@@H]3CCCN3C(=O)[C@H](C)NC(=O)[C@H](CCCCN)NC2=O)C(=O)N[C@@H](C)C(=O)N[C@@H](Cc2ccc(O)cc2)C(=O)N[C@@H](Cc2c[nH]c3ccccc23)C(=O)N1)C(=O)N[C@@H](Cc1c[nH]cn1)C(N)=O	Protein Mdm4, residues 24-108 (MDM4, Homo sapiens, UniProt O15151)	binding, SPR competition		synthetic MDMX 24-108, together with: immobilized p53 peptide 15-29	0.252 ± 0.023 µM
C[C@@H](O)[C@H](NC(=O)[C@@H]1CCCN1C(=O)[C@H](CO)NC(=O)[C@H](Cc1ccc(O)cc1)NC(=O)[C@H](COP(=O)(O)O)NC(=O)[C@@H]1CCCN1C(=O)[C@H](COP(=O)(O)O)NC(=O)[C@@H](NC(=O)[C@@H]1CCCN1C(=O)[C@H](CO)NC(=O)[C@H](Cc1ccc(O)cc1)NC(=O)[C@H](CO)NC(=O)[C@@H]1CCCN1C(=O)[C@@H](N)CO)[C@@H](C)O)C(=O)N[C@@H](COP(=O)(O)O)C(=O)N1CCC[C@H]1C(=O)N[C@@H](COP(=O)(O)O)C(=O)N[C@@H](Cc1ccc(O)cc1)C(=O)N[C@@H](CO)C(=O)O	Regulation of nuclear pre-mRNA domain-containing protein 1A, CID domain (RPRD1A, Homo sapiens, UniProt Q96P16)	isothermal titration calorimetry		pH 7.5, 25 °C	> 1000 µM
c1cnc2c(c1)c1nccnc1c1cccnc12	TAS2R5 (Homo sapiens, UniProt Q9NYW4)		HEK293 cell membranes		2.5 ± 1.6 µM
N=C(N)NCCC[C@H](NC(=O)[C@H](Cc1ccccc1)NC(=O)[C@@H]1CCCN1C(=O)[C@H](CO)NC(=O)[C@H](Cc1ccccc1)NC(=O)CNC(=O)[C@@H]1CCCN1C(=O)[C@@H]1CCCN1C(=O)[C@@H](N)CCCNC(=N)N)C(=O)N[C@@H](CCCCNS(=O)(=O)c1ccc(C2=c3cc4c5c(c3Oc3c2cc2c6c3CCCN6CCC2)CCC[N+]=5CCC4)c(S(=O)(=O)[O-])c1)C(=O)O	Oligopeptide-binding protein OppA (oppA, Lactococcus lactis subsp. lactis, UniProt Q07741)	binding, fluorescence anisotropy		pH 8, 18 °C, together with: dye-labelled peptide	20 ± 1 µM
CN(C)c1ccc2c(-c3ccc(C(=O)NCCCC[C@H](NC(=O)COCCOCCNC(=O)CC[C@@H]4NC(=O)[C@@H](CCCNC(=N)N)NC(=O)[C@H](CCCNC(=N)N)NC(=O)[C@@H](CCCNC(=N)N)NC(=O)[C@H](CCCNC(=N)N)NC(=O)[C@H](Cc5ccc6ccccc6c5)NC(=O)[C@@H](Cc5ccccc5)NC(=O)[C@H](Cc5ccccc5)NC4=O)C(N)=O)cc3C(=O)[O-])c3ccc(=[N+](C)C)cc-3oc2c1	fetal bovine serum proteins	binding, fluorescence polarization		1 h	27 ± 9 µM

A few entries again:
SMILES	target	test	test system	conditions	Kd
N[C@@H](Cc1ccc(O)c(I)c1)C(=O)O	Iodotyrosine deiodinase (IYD, Thermotoga neapolitana, UniProt B9K712, F88A/W82A/Y112A)	FMN fluorescence quenching		25 °C, Y112A/W82A/F88A variant	0.9 ± 0.1 µM
c1cnc2c(c1)c1nccnc1c1cccnc12	TAS2R5 (Homo sapiens, UniProt Q9NYW4)		HEK293 cell membranes		2.5 ± 1.6 µM
CC(C)C[C@H](NC(=O)[C@H](CCC(N)=O)NC(=O)[C@@H]1CSSC[C@@H]2NC(=O)[C@H](CC(N)=O)NC(=O)[C@@H](N)CSSC[C@H](NC(=O)[C@H](Cc3ccccc3)NC(=O)[C@H](C)NC(=O)[C@H]([C@@H](C)O)NC(=O)[C@H](CCC(=O)O)NC(=O)[C@@H]3CCCN3C(=O)[C@H](C)NC(=O)[C@H](CCCCN)NC2=O)C(=O)N[C@@H](C)C(=O)N[C@@H](Cc2ccc(O)cc2)C(=O)N[C@@H](Cc2c[nH]c3ccccc23)C(=O)N1)C(=O)N[C@@H](Cc1c[nH]cn1)C(N)=O	Protein Mdm4, residues 24-108 (MDM4, Homo sapiens, UniProt O15151)	binding, SPR competition		synthetic MDMX 24-108, together with: immobilized p53 peptide 15-29	0.252 ± 0.023 µM
